Measurements pooled from the literature.
A part holds a random share of what one study measured. “And” joins repeats or separate records; there may be more than shown.
Chain of UniProt Q92630 (whole entry, looked up): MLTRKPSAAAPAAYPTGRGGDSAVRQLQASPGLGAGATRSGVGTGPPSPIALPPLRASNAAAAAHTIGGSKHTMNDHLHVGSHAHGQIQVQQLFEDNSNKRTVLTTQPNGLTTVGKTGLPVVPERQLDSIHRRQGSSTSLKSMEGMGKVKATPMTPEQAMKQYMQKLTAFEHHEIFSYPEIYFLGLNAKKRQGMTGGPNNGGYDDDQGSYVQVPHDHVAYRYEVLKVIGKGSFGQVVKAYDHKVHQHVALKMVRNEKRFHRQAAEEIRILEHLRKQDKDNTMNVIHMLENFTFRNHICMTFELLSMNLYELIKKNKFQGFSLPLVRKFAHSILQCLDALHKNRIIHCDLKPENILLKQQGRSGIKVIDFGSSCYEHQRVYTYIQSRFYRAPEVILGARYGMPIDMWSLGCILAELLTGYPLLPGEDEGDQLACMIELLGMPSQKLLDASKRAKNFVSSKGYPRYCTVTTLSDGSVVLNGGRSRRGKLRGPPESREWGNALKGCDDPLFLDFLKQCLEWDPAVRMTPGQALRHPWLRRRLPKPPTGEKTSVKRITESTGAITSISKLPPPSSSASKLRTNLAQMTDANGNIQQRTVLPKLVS
Chain of UniProt P57059 (whole entry, looked up): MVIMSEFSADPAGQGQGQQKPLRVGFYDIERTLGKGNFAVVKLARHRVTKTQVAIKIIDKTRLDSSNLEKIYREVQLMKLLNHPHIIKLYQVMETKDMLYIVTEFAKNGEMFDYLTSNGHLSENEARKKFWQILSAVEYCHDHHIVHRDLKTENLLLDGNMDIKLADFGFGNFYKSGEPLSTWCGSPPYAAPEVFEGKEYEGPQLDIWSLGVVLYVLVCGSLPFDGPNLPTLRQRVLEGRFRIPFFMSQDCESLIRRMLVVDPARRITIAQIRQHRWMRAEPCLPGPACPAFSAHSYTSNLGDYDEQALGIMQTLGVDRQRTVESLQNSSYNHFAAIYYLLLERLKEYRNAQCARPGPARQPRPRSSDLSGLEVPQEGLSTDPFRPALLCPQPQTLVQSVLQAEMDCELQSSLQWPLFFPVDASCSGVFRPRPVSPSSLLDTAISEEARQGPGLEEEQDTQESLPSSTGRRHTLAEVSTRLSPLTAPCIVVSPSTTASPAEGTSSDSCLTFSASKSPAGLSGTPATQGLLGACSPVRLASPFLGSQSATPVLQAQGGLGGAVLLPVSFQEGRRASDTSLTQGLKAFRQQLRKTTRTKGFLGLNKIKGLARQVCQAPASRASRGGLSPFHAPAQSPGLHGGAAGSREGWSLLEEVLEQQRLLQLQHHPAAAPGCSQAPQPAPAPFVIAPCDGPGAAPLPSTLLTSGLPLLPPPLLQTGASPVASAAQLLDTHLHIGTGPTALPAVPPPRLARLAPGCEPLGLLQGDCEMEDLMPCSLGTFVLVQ
Chain of UniProt Q9H4A3 (whole entry, looked up): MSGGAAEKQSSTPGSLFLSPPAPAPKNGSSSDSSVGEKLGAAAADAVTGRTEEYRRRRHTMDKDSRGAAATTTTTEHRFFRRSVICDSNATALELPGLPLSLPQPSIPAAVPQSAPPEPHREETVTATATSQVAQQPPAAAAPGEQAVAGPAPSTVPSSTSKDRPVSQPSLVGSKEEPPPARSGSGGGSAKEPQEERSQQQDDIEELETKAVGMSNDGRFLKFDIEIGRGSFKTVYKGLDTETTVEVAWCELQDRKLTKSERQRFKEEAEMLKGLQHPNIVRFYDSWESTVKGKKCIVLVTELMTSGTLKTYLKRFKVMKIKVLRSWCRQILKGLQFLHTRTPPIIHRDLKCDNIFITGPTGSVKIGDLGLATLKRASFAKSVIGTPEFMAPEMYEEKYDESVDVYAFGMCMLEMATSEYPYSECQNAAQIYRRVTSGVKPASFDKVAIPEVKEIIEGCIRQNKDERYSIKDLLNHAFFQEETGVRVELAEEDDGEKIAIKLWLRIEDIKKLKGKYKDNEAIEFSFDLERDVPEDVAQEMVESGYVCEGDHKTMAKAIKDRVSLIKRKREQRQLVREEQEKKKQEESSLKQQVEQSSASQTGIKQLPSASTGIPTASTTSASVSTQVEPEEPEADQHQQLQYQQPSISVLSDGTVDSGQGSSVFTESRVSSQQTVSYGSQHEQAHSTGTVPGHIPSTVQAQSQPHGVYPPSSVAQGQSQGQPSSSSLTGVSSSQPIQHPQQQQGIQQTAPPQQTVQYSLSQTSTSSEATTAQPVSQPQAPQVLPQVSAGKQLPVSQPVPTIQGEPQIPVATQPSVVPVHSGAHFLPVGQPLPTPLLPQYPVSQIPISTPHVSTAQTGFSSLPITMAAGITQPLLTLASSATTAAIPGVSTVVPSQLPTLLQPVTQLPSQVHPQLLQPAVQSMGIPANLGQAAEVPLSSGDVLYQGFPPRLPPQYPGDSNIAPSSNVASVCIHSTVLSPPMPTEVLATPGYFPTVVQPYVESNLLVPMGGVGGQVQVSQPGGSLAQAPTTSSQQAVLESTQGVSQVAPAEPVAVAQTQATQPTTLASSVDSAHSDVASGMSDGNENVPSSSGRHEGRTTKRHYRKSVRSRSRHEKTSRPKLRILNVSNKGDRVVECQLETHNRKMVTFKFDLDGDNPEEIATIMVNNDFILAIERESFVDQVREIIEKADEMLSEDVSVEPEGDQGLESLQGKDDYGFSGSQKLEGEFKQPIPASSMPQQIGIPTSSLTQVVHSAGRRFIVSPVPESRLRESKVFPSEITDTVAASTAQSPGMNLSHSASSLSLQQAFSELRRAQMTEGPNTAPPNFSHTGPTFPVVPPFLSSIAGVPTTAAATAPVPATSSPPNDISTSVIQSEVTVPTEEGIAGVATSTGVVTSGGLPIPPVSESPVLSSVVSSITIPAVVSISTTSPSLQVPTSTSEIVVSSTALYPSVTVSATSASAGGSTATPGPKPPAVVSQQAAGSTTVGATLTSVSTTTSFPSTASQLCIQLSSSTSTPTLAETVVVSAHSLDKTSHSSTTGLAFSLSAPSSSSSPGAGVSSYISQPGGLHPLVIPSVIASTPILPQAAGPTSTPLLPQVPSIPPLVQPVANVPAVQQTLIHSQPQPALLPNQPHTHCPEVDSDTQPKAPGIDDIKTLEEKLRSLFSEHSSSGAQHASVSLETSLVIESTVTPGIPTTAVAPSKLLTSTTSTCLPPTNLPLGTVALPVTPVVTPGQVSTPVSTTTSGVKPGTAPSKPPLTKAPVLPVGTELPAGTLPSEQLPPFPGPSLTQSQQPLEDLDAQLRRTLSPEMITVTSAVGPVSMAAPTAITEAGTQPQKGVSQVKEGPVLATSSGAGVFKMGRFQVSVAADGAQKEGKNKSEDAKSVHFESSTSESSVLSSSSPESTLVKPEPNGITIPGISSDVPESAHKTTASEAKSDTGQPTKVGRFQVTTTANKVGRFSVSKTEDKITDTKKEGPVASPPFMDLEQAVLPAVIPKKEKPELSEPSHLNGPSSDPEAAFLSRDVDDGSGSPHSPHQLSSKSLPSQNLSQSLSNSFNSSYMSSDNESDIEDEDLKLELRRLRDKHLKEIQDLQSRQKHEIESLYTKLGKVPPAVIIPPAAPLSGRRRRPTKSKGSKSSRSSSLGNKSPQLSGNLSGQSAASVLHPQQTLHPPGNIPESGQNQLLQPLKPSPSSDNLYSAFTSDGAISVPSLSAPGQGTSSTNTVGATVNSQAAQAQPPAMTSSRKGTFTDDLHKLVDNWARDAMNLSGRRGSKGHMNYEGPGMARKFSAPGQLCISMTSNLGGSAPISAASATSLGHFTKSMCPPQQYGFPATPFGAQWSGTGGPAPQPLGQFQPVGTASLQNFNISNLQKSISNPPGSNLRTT
Chain of UniProt Q16539 (whole entry, looked up): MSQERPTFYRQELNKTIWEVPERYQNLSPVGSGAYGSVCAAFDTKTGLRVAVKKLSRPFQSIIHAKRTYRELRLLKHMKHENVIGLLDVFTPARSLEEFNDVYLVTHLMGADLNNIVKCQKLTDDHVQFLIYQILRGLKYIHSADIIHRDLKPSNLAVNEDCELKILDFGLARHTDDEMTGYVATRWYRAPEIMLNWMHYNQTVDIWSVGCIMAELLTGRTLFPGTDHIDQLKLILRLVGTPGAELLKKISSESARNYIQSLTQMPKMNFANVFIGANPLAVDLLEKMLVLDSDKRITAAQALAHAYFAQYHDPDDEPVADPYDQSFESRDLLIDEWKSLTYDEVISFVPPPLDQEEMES

Study 1
Cell line: A-375
Concentration: 100 µM
Time: 36 h
NCCCNCCSP(=O)(O)O has a viability of 106%.
The viability of CCN(CC)CCCC(C)Nc1ccnc2cc(Cl)ccc12 (centres unmarked) is reported as -2.56%.
The viability of Nc1nc(O)c2ncn(COC(CO)CO)c2n1 is reported as 112%.
NS(=O)(=O)Cc1noc2ccccc12 gave a viability of 57.6%.
CC[C@H]1OC(=O)[C@H](C)[C@@H](O[C@H]2C[C@@](C)(OC)[C@@H](O)[C@H](C)O2)[C@H](C)[C@@H](O[C@@H]2O[C@H](C)C[C@H](N(C)C)[C@H]2O)[C@](C)(O)C[C@@H](C)CN(C)[C@H](C)[C@@H](O)[C@]1(C)O gave a viability of 89.3%.
CC(C)C[C@H](NC(=O)[C@@H](O)[C@H](N)Cc1ccccc1)C(=O)O has a viability of 103%.
The viability of O=c1ccc2ccc(O)c(O)c2o1 is reported as 94.1%.

Study 2
SMILES: CO[C@@H]1[C@H](N(C)C(=O)c2ccccc2)C[C@H]2O[C@]1(C)n1c3ccccc3c3c4c(c5c6ccccc6n2c5c31)C(=O)NC4
Observed: enzyme activity
Mode: inhibitor
Concentration: 1 µM
PIP4K2B (Homo sapiens, UniProt P78356) — inhibition: 99%.
For MAPK14 (Homo sapiens, UniProt Q16539): inhibition read 0%.
The inhibition was 12% (DYRK2 (Homo sapiens, UniProt Q92630)).
It gave 58% for inhibition (GRK3 (Homo sapiens, UniProt P35626)).
It gave 95% for inhibition (SIK1 (Homo sapiens, UniProt P57059)).
WNK1 (Homo sapiens, UniProt Q9H4A3) — inhibition: 15%.

Study 3
Compound: CNC(=O)Nc1ccc2c(c1)C1(CC2)OC(=O)N(CC(=O)N(Cc2ccc(F)cc2)[C@@H](C)C(F)(F)F)C1=O (single isomer, unassigned)
Concentration: 0.1 µM
Relative to: DMSO
The viability was 93.4% (sample C colorectal tumour organoid; replicate 1).
It gave 91.9% and 103% for viability (normal-adjacent epithelium patient-derived organoids sample H; CellTiter-Glo).
The viability was 96.9% and 102% (normal-adjacent epithelium patient-derived organoids sample F; CellTiter-Glo).
It gave 116% and 131% for viability (normal-adjacent epithelium patient-derived organoids sample G; CellTiter-Glo).
For sample B colorectal tumour organoid; replicate 2: viability read 128%.
colorectal tumour organoids — viability: 107%.
sample C colorectal tumour organoid — viability: 97.4%.
The viability was 122% (sample I colorectal tumour organoid; replicate 1).

Study 4
Target: Ephrin type-B receptor 3 (EPHB3, Homo sapiens, UniProt P54753)
Chain of UniProt P54753 (whole entry, looked up): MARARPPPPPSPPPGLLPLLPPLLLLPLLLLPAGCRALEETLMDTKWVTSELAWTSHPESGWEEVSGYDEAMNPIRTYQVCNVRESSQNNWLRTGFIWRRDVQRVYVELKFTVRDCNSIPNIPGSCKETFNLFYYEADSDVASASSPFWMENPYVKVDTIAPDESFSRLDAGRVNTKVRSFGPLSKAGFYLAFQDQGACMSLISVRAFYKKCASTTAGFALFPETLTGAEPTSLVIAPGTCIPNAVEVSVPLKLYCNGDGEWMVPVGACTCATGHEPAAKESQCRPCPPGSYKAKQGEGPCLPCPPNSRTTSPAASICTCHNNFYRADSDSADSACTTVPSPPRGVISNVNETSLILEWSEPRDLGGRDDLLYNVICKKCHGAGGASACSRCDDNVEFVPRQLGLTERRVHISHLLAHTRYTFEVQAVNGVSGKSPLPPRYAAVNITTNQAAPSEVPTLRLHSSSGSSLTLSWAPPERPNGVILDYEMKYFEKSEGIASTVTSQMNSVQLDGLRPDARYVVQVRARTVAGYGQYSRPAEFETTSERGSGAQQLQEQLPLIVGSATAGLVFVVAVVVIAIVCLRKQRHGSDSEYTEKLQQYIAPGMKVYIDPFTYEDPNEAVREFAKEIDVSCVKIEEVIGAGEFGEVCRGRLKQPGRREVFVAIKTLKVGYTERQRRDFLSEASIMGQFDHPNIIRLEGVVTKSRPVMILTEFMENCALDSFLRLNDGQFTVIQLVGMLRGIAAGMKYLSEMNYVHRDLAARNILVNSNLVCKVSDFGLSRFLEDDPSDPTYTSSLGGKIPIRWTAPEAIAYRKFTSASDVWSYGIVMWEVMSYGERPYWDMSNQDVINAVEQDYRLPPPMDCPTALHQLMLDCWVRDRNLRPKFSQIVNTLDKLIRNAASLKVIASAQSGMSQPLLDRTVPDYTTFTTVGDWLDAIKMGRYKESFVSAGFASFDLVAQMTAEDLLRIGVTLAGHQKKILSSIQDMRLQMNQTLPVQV
Observed: enzyme activity
Mode: inhibitor
Concentration: 0.5 µM
Relative to: control
With O=C(O)c1ccc2c3c1cccc3c(=O)n1c3ccccc3nc21 the remaining activity was 94.5%.
The remaining activity of Oc1ccc(-c2nc(-c3ccncc3)c(-c3ccc(F)cc3)[nH]2)cc1 is reported as 97.7%.
The remaining activity of CCOC(=O)c1c(C)[nH]c(/C=C2\C(=O)Nc3ccccc32)c1C is reported as 94.4%.
Nc1ncnc2n[nH]c(Nc3ccc(F)cc3)c12 has a remaining activity of 87.7%.
COc1ccc(OC)c2c(=S)c3ccccc3[nH]c12 gave a remaining activity of 91%.
The remaining activity of Cc1ccc(NC(=O)c2ccc(CN3CCN(C)CC3)cc2)cc1Nc1nc(-c2cccnc2)cs1 is reported as 80.9%.
For O=c1c2ccccc2[nH]c(=S)n1CCN1CCC(=C(c2ccc(F)cc2)c2ccc(F)cc2)CC1, the remaining activity was 92.8%.
COc1ccc(CNC(=O)Nc2ncc([N+](=O)[O-])s2)cc1 has a remaining activity of 101%.
O=C(Nc1cccc(Nc2cc(Nc3cccc(C(F)(F)F)c3)ncn2)c1)C1CC1 gave a remaining activity of 87.9%.
With CNC(=O)c1cc(Oc2ccc(NC(=O)Nc3ccc(Cl)c(C(F)(F)F)c3)cc2)ccn1 the remaining activity was 95.5%.
Cc1cccc(-c2[nH]c(C(C)(C)C)nc2-c2ccc3c(c2)OCO3)n1 has a remaining activity of 103%.
With Nc1[nH]nc2nc3ccccc3nc12 the remaining activity was 90.3%.
The remaining activity of CO[C@H]1C[C@@H]2CC[C@@H](C)[C@@](O)(O2)C(=O)C(=O)N2CCCC[C@H]2C(=O)O[C@H]([C@H](C)C[C@@H]2CC[C@@H](O)[C@H](OC)C2)CC(=O)[C@H](C)/C=C(\C)[C@@H](O)[C@@H](OC)C(=O)[C@H](C)C[C@H](C)/C=C/C=C/C=C/1C is reported as 103%.
The remaining activity of Nc1ccc2ncnc(NCCc3ccc(Oc4ccccc4)cc3)c2c1 is reported as 97.3%.
